# Published values gathered from unrelated publications.
# Each line is one published result; not all experiments were run side by side. Several values in a cell are separate wells, animals, samples, runs or records. ± marks the error that the study gave.
SMILES,cell line,test,test system,setting,how to read,endpoint,value
CCN(CC)c1ccc(C=NNC(=O)CSc2nc3ccccc3c(=O)n2Cc2ccc(S(N)(=O)=O)cc2)c(O)c1,786-0,NCI five-dose screen,,,,CC50,> 100000 nM
COc1c(C)c2c(c(O)c1C/C=C(\C)CCC(=O)O)C(=O)OC2,L-363,cell proliferation,blood cancer,,,IC50,407 nM
COc1cc(N2CC[C@@]3(O)C(=O)c4cc(C)c(C)cc4N=C23)ccn1,COS-7,cytokinesis,,24 h,,EC50,1000 nM
O=C1CCP(=S)(c2ccccc2)CC1,HaCaT,trypan blue,,"IC50, 72 h",,viability reduction,27 to 31%
Oc1ccc(C2(c3ccc(O)cc3)c3ccccc3-c3ccccc32)cc1,HepG2 spheroids,Hoechst flow cytometry,,"1 µM, 96 h",,G1 phase cells,72.5 ± 4.17%
COc1cc(CCC[P+](c2ccccc2)(c2ccccc2)c2ccccc2)c(OC)c2c1OCO2.[I-],MDA-MB-435,SRB,,,,GI50,-6.31 log M
O=S(=O)(c1ccc(O)cc1)c1ccc(O)cc1,HepG2 spheroids,Hoechst flow cytometry,,"1 µM, 24 h",,G1 phase cells,71.5 ± 4%
CC(C)(O/N=C(\C(=O)N[C@@H]1C(=O)N2C(C(=O)[O-])=C(C[n+]3ccccc3)CS[C@H]12)c1csc(N)n1)C(=O)O,Escherichia coli DH5α expressing KPC-25,bacterial growth,,,,MIC,64 µg/mL
C/C=C(/C)C(=O)O[C@H]1C(C)=C2[C@H]([C@@H]1OC(=O)CCCCCCC)[C@@](C)(OC(C)=O)C[C@H](OC(=O)CCC)[C@@]1(O)[C@H]2OC(=O)[C@@]1(C)O,HEK293,"western blot, item: ATF4",,"3 µM, 6 h, unit not given",baseline: mock,protein level,1.17 and 1.24 and 1.47
COc1ccc2c(c1)CC[C@@H]1[C@@H]2CC[C@]2(C)[C@@H](NCCCCCCN3C(=O)C=CC3=O)CC[C@@H]12,N2a,"fluorescence signal increase, inhibitor",,"300 nM, added: ionomycin 2.5 µM",,effect on signal,inhibited
Cn1nccc1Nc1nccc(-c2cc3c(s2)C(C)(C)N(CCN2CCOCC2)C3=O)n1,HCT116,IncuCyte,,"concentration not given, 12 (unit not given)",,PI-positive cells,3.25 count and 4.08 count
CC(C)C[C@H](NC(=O)[C@H](CCc1ccccc1)NC(=O)CN1CCOCC1)C(=O)N[C@@H](Cc1ccccc1)C(=O)N[C@@H](CC(C)C)C(=O)[C@@]1(C)CO1,patient normal conditionally reprogrammed cells,"RNA-seq, item: DYNC1I1 mRNA",human,concentration not given,baseline: DMSO,fold change,-20.2
COc1ccc2c(c1)[nH]c1c(C)nccc12,DU-145,"bisulfite pyrosequencing, item: RASSF1A promoter CpG site 28",,"10 µM, 16 h",,DNA methylation,76%
COc1c(CCC[P+](c2ccccc2)(c2ccccc2)c2ccccc2)cc2c(c1OC)OCO2.[I-],PC-3,SRB,,,,LC50,> -4 log M
CC(C)=CCc1c(O)cc(O)cc1-c1cc2ccc(O)c(CC=C(C)C)c2o1,3T3,"cell growth, MTT",,"7.25 µg/mL, 48 h",,cell survival,81.58 ± 0.46%
C[C@]12CC[C@H](O)C[C@H]1CC[C@@H]1[C@@H]2CC[C@]2(C)[C@@H](c3ccc(=O)oc3)CC[C@]12O,MCF7,"RT-qPCR, item: CCND1",,"20 nM, 48 h, unit not given, added: estradiol",baseline: untreated,mRNA level,1.53 and 1.88 and 1.5
CC(c1ccccc1)(c1ccc(O)cc1)c1ccc(O)cc1,HepG2 spheroids,Hoechst flow cytometry,,"0.1 µM, 24 h",,S phase cells,8.54 ± 0.83%
Oc1cc(O)cc(-c2cc3ccc(O)cc3o2)c1,MCF7,"cell growth, MTT",,"100 µg/mL, 48 h",,cell survival,43.25 ± 0.34%
COc1cc([C@@H]2c3cc4c(cc3C[C@H]3COC(=O)[C@@H]32)OCO4)cc(OC)c1OC,neuroblastoma M2 (−),western blot,,IC50,baseline: untreated,PARP cleavage,increased
COc1cnc(OC)n2nc(NS(=O)(=O)c3c(OCC(F)F)cccc3C(F)(F)F)nc12,HEK293T,"cytotoxicity, CCK-8",,"0.78 µM, 72 h",,inhibition,0%
C/C=C(/C)C(=O)O[C@H]1C(C)=C2[C@H]([C@@H]1OC(=O)CCCCCCC)[C@@](C)(OC(C)=O)C[C@H](OC(=O)CCC)[C@@]1(O)[C@H]2OC(=O)[C@@]1(C)O,HEK293T,"RNA-seq, item: ASNS mRNA",,"10 µM, 6 h",baseline: vehicle,log2 fold change,2.24
O=C1N(Cc2ccccc2Cl)c2ccccc2C12NN=C(c1ccccc1)S2 (stereo not shown),MDA-MB-468,"gene expression array, item: BARD1 mRNA",,"10 µM, 12 h","baseline: untreated, down",fold change,1.51
Cc1c2ccncc2c(C)c2c1[nH]c1ccccc12,FaDu,SRB,,,baseline: normal over FaDu IC50,selectivity index,1.02
Cc1cccc(-c2cccc(C)n2)n1.Cc1cccc(-c2cccc(C)n2)n1.F[P-](F)(F)(F)(F)F.F[P-](F)(F)(F)(F)F.[Ru+2].c1ccc2cc(-c3nc4c5cccnc5c5ncccc5c4[nH]3)ccc2c1,SK-MEL-28,,,"1% O2, added: blue light 453 nm, 100 J/cm2",baseline: dark over light EC50,phototoxicity index,1
Cc1ccc2c(c1)C(=O)[C@]1(O)CCN(c3ccc4nc(C)ccc4c3)C1=N2,COS-7,cytokinesis,,48 h,,EC50,1700 ± 100 nM
Nc1ncc(-c2nc(N3CCOCC3)nc(N3CCOCC3)n2)c(C(F)F)n1,SNU-C2B,,,72 h,,GI50,607 nM
Nc1ncnc2c1ncn2[C@@H]1O[C@@H]2COP(=O)(O)O[C@H]3[C@@H](O)[C@H](n4cnc5c(=O)[nH]cnc54)O[C@@H]3COP(=O)(O)O[C@H]2[C@H]1O,HFF-1,"RNA sequencing, item: Reactome R-HSA-1169410",,upregulated pathway,baseline: Zika virus alone,pathway fold enrichment,6.97
COc1ccc([C@H]2c3[nH]c4ccc(Cl)cc4c3CCN2C(=O)Oc2ccc(Cl)cc2)cc1,CD19+ B cells with PBMC,"cytokine secretion, item: s-IL-17F",,"0.01 µM, 72 h, BioMAP BT system",,inhibition,58%
CN1CCN(C2(CNC3CCN(c4cccc(-c5cc6cc(F)ccc6[nH]5)c4)CC3)CCC2)CC1,BT-549,,,,,CC50,6850 nM
Cn1cncc1C1=CN(c2ncnc3[nH]cnc23)CCS1,786-0,,,renal cancer cell line,,CC50,91200 nM
Oc1cc(Cl)ccc1Oc1ccc(Cl)cc1Cl,HepG2,"extracellular flux, item: oxygen consumption rate",,"6 h, representative mode",,point of departure,1.29 µM
CN1CCN(S(=O)(=O)c2cc([N+](=O)[O-])ccc2N(CCOS(C)(=O)=O)CCOS(C)(=O)=O)CC1,HCT-116 overexpressing AKR1C1,"cell growth, sulforhodamine B",,96 h,,IC50,15700 nM
Oc1ccc(C(c2ccc(O)cc2)(C(F)(F)F)C(F)(F)F)cc1,HepG2 spheroids,Hoechst flow cytometry,,"40 µM, 24 h",,G2 phase cells,23.9 ± 3.25%
Cc1nn(-c2nc3ccc(Cl)c(Cl)c3[nH]2)c(O)c1C1OC(=O)c2ccccc21 (stereo not shown),RAW-ISG,CCK-8,,200 µM,,viability,9.7% and 14.4% and 10.7% and 17.4% and 19.7%
CC(C)N1CCC(NC2CCN(c3cccc(-c4cc5cc(F)ccc5[nH]4)c3)CC2)CC1,BT-549,,,,,GI50,1770 nM
C[C@H]1[C@H](C)CC[C@]2(C(=O)O)CC[C@]3(C)C(=CC[C@@H]4[C@@]5(C)CC[C@H](O)C(C)(C)[C@@H]5CC[C@]43C)[C@H]12,MCF7,"cell growth, MTT",,"12.5 µg/mL, 48 h",,cell survival,65.36 ± 0.61%
Cn1cc2cc(C(F)(F)c3nnc4ccc(-c5cnn(C6CC6)c5)nn34)c(F)cc2n1,MKN-45,annexin V-FITC/PI flow cytometry,,"200 nM, 48 h",,apoptotic cells,~59.8%

# Repeated from above:
SMILES,cell line,test,test system,setting,how to read,endpoint,value
O=C1N(Cc2ccccc2Cl)c2ccccc2C12NN=C(c1ccccc1)S2 (stereo not shown),MDA-MB-468,"gene expression array, item: BARD1 mRNA",,"10 µM, 12 h","baseline: untreated, down",fold change,1.51
Cc1c2ccncc2c(C)c2c1[nH]c1ccccc12,FaDu,SRB,,,baseline: normal over FaDu IC50,selectivity index,1.02
